Published values of several laboratories.
Target: Mu-type opioid receptor (Oprm1, Rattus norvegicus, UniProt P33535)
UniProt P33535, sequence (whole entry, looked up): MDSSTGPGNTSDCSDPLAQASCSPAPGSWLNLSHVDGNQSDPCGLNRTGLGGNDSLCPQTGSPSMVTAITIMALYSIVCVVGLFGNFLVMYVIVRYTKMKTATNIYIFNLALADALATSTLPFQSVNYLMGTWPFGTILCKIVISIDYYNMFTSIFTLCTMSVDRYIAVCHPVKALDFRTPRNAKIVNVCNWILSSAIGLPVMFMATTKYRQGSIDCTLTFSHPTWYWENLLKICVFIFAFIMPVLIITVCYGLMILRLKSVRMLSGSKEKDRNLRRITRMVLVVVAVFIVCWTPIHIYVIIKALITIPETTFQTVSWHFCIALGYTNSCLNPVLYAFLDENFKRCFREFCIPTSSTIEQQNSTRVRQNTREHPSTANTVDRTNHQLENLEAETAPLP
Action: agonist

`Cc1cc(O)cc(C)c1CC(N)C(=O)NC1CCNc2ccc(CN3CCCCC3)cc21` (stereo not drawn) gave an EC50 of 9 nM (GTPγS binding, radiometric; cell membranes).
For `CC(C)C[C@H](NC(=O)[C@H](Cc1ccc2ccccc2c1)NC(=O)CNC(=O)[C@H](NC(=O)[C@@H](N)Cc1ccc(O)cc1)[C@H](C)O)C(=O)N[C@@H](CO[C@@H]1O[C@H](CO)[C@@H](O)[C@H](O)[C@H]1O)C(N)=O`, the EC50 was 110 nM (GTPγS binding, radiometric; cell membranes).
With `Cc1cc(O)cc(C)c1CC(N)C(=O)NC1CCNc2c(F)cc(Cc3ccccc3)cc21` (stereo not drawn) the EC50 was 1.6 nM (GTPγS binding, radiometric; cell membranes).
`CCCC[C@@H]1NC(=O)[C@H](Cc2ccccc2)NC(=O)CNC(=O)[C@H](NC(=O)[C@@H](N)Cc2ccc(O)cc2)C(C)(C)SSC(C)(C)[C@@H](C(=O)N[C@@H](Cc2c[nH]c3ccccc23)C(=O)NCc2cc(C(F)(F)F)cc(C(F)(F)F)c2)NC(=O)[C@@H]2CCCN2C1=O` gave an EC50 of 2140 nM.
`Cc1cc(O)cc(C)c1CC(N)C(=O)NC1CCNc2ccc(Cc3cccnc3)cc21` (stereo not drawn) has an EC50 of 93 nM (GTPγS binding, radiometric; cell membranes).
For `CCc1cc(Cc2ccccc2)cc2c1NCCC2NC(=O)C(N)Cc1c(C)cc(O)cc1C` (stereo not drawn), the EC50 was 6.2 nM (GTPγS binding, radiometric; cell membranes).
For `CC(=O)N1CCC(NC(=O)C(N)Cc2c(C)cc(O)cc2C)c2cc(CN3CCC4CCCCC4C3)ccc21` (stereo not drawn), the EC50 was 40 nM (GTPγS binding, radiometric; cell membranes).
The EC50 of `Cc1cc(O)cc(C)c1CC(N)C(=O)NC1CCNc2c(CN3CCOCC3)cc(Cc3ccccc3)cc21` (stereo not drawn) is reported as 1.8 nM (GTPγS binding, radiometric; cell membranes).
With `CC(C)C[C@H](NC(=O)[C@H](Cc1ccc2ccccc2c1)NC(=O)CNC(=O)[C@H](NC(=O)[C@@H](N)Cc1ccc(O)cc1)[C@H](C)O)C(=O)N[C@@H](CO)C(N)=O` the EC50 was 13 nM (GTPγS binding, radiometric; cell membranes).
